Assay results of several laboratories.
Each numbered part is a random draw from the data of one study; scales do not carry over between parts. Substitutions count along the parent as printed.
UniProt P35968, sequence (whole entry, looked up): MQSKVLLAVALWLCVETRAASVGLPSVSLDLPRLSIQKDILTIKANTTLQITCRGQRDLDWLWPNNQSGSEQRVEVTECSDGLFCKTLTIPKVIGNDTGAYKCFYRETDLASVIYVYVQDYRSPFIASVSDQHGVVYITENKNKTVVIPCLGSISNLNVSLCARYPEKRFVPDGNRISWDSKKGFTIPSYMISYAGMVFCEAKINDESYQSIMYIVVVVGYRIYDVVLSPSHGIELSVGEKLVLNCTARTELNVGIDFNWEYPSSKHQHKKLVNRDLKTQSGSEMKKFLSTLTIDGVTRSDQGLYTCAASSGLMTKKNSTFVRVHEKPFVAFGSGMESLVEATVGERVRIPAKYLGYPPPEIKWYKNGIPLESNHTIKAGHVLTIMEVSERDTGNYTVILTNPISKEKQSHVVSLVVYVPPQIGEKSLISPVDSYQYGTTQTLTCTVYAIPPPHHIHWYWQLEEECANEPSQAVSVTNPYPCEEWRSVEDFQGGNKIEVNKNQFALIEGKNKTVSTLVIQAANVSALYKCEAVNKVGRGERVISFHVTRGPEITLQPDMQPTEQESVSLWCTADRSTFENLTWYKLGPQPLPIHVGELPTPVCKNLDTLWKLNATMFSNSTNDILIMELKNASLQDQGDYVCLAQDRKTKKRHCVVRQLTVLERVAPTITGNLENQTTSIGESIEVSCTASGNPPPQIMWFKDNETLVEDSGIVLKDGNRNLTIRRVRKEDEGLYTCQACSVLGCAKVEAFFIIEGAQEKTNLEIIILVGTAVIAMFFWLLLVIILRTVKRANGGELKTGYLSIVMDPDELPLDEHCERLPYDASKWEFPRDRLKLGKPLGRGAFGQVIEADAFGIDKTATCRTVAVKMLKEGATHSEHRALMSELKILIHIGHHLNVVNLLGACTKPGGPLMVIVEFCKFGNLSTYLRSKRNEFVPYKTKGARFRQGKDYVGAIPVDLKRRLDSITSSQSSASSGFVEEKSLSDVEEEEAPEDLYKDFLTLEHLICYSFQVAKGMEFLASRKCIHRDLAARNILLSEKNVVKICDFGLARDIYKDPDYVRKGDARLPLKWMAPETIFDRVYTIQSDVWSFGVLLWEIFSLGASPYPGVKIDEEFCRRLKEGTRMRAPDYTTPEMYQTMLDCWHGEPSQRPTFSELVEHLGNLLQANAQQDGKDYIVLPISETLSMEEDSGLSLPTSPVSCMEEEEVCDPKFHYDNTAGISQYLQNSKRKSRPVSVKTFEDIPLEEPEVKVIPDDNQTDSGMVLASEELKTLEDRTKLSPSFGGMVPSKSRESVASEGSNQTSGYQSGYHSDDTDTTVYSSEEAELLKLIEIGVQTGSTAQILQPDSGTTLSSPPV
UniProt Q96L34, sequence (whole entry, looked up): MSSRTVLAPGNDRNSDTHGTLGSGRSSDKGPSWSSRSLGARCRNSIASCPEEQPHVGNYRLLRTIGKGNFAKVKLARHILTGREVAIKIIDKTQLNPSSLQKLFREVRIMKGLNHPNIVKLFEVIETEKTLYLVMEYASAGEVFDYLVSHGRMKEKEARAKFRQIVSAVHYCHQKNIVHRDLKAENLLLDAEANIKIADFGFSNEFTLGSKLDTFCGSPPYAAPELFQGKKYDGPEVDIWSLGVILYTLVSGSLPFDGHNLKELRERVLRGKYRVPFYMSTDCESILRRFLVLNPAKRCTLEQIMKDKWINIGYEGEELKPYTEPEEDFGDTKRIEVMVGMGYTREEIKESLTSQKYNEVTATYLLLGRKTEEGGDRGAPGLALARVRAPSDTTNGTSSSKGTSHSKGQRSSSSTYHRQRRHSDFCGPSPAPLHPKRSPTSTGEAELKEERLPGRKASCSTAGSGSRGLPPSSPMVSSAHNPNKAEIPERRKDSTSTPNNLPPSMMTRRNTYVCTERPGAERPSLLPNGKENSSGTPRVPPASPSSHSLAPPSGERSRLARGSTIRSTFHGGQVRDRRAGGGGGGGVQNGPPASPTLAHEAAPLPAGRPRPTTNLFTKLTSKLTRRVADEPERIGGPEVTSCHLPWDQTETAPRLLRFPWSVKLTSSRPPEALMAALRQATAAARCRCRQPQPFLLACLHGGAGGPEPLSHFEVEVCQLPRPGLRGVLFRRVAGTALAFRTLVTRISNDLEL
UniProt P50750, sequence (whole entry, looked up): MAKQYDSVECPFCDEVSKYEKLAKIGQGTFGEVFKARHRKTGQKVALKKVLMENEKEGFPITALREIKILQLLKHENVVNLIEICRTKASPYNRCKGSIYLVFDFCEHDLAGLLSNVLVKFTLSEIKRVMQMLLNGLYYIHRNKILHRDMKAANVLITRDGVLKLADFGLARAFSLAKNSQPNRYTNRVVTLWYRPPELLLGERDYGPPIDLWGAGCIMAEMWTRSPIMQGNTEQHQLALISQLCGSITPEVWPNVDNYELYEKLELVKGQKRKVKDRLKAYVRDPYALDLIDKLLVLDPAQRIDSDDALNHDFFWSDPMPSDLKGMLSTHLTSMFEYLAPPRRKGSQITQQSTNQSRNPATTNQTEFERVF
UniProt Q9HAZ1, sequence (whole entry, looked up): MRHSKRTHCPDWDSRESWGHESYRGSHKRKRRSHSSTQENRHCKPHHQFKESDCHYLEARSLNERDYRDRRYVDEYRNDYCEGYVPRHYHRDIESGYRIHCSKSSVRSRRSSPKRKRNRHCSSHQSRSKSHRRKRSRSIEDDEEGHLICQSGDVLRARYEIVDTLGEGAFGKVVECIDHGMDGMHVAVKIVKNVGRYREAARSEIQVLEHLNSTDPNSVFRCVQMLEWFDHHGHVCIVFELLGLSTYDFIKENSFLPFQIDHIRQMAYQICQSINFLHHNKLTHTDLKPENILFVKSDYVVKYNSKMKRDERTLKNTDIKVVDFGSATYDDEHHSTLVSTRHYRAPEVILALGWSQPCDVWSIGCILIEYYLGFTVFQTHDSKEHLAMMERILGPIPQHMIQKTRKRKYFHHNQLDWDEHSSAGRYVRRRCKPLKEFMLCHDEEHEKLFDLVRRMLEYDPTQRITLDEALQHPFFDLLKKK
UniProt P49761, sequence (whole entry, looked up): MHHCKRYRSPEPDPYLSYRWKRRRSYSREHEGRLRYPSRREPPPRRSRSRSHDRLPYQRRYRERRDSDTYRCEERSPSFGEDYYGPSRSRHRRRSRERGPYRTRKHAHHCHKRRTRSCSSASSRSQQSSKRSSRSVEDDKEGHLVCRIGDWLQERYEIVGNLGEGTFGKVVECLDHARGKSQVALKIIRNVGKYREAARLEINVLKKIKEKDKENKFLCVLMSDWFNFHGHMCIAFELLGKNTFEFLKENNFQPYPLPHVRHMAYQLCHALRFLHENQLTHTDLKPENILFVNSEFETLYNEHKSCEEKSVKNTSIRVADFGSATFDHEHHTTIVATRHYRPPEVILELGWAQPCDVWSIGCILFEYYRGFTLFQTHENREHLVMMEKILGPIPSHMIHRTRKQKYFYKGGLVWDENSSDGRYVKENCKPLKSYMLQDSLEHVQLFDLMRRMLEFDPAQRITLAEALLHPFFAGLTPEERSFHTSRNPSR
UniProt P42681, sequence (whole entry, looked up): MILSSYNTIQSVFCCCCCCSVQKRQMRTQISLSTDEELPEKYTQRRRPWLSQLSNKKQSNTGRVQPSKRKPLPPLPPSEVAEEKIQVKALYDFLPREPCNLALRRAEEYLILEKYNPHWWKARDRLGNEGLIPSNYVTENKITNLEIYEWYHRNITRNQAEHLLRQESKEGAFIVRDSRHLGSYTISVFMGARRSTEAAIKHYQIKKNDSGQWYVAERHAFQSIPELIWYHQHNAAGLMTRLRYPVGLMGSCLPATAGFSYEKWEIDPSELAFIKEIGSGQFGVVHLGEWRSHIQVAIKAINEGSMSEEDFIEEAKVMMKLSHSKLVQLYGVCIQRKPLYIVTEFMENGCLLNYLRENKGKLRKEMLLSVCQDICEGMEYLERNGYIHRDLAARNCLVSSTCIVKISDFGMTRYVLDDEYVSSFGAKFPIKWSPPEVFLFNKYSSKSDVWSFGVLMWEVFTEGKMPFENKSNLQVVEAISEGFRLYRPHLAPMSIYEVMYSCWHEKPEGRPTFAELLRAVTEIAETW
UniProt Q7KZI7, sequence (whole entry, looked up): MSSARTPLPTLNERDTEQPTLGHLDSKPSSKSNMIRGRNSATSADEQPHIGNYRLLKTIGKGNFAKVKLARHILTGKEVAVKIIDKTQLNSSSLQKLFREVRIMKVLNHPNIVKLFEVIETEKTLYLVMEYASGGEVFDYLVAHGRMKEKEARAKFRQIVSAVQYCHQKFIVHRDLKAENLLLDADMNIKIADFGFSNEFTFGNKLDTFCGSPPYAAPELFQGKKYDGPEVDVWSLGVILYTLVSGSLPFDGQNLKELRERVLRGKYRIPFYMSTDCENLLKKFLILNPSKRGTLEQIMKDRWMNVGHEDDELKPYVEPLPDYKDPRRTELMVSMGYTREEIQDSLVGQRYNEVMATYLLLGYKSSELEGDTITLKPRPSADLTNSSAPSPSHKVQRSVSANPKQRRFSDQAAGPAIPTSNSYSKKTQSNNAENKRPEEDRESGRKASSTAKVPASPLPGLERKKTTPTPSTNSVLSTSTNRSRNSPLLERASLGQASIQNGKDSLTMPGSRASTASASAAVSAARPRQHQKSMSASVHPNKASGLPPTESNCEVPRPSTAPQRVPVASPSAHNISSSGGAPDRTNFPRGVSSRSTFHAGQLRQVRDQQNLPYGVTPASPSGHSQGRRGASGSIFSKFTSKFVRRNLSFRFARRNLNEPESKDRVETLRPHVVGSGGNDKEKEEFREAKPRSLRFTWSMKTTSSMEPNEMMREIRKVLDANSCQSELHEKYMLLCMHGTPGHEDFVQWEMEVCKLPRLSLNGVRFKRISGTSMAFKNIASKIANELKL

Block 1
Structure (SMILES): Nc1ncnc2c1cnn2-c1ccccc1
Read-out: enzyme activity
Action: inhibitor
Tested at: 0.5 µM
Reference: control
Endpoint: remaining activity
KDR (Homo sapiens, UniProt P35968): 98.8%
MAP2K1 (Homo sapiens, UniProt Q02750): 93.9%
DDR2 (Homo sapiens, UniProt Q16832): 92.3%
CDC42BPB (Homo sapiens, UniProt Q9Y5S2): 96.7%
TXK (Homo sapiens, UniProt P42681): 94.8%
ROCK1 (Homo sapiens, UniProt Q13464): 93.8%
Cyclin-dependent kinase 9, with cyclin K (CDK9, Homo sapiens, UniProt P50750): 92.9%
PRKG2 (Homo sapiens, UniProt Q13237): 99.2%
CLK3 (Homo sapiens, UniProt P49761): 96.1%
MARK2 (Homo sapiens, UniProt Q7KZI7): 95.3%
CLK4 (Homo sapiens, UniProt Q9HAZ1): 76.7%
Myosin-IIIb (MYO3B, Homo sapiens, UniProt Q8WXR4): 93.4%
MARK4 (Homo sapiens, UniProt Q96L34): 89.7%
MAPK11 (Homo sapiens, UniProt Q15759): 99.9%

Block 2
Target: CCNB3, cyclin fold, Cln2 fusion (human)
Technique: yeast growth competition, sequencing
Medium: yeast
Notes: weak parent motif
Reference: not given
Direction: higher = stronger binding
Endpoint: normalised enrichment score
Starting sequence: ORC1 docking peptide (human); PRARKRLELGNLG
A3Q: 0.554
G10L: 0.615
G13Q: -0.525
L9G: 0.0538
N11Y: 0.74
L9Y: 0.246
K5F: 0.153
K5H: 0.132

Block 3
Structure (SMILES): CCC(=O)N[C@H]1CC[C@@H](C(=O)N(C)c2ccc(-c3nc4ccccc4o3)cc2)C1
Technique: competition with immobilised ligand
Tested at: 1 µM
Endpoint: remaining binding
PRKACA (Homo sapiens, UniProt P17612); cell-free assay: 100%
STK32C (Homo sapiens, UniProt Q86UX6); cell-free assay: 94%
Tyrosine-protein kinase ABL1, non-phosphorylated (ABL1, Homo sapiens, UniProt P00519, F317I); binding: 86%
STK17A (Homo sapiens, UniProt Q9UEE5); cell-free assay: 91%

Other studies, line by line
Cc1cc2c(C(N)=O)c(N)n(-c3c(C)ccc(O)c3C)c2nc1C — number of kinases bound (KINOMEscan; 403 non-mutant kinase panel; 1000 nM, percent of control below 1): 9
CC(C)n1cnc(-c2ccc(F)cc2)c1-c1ncc(C(=O)Nc2ccc(N3CCN(C)CC3)cc2)[nH]1 — serious treatment-related AEs (human, idiopathic pulmonary fibrosis; 30 mg twice daily, trial, with standard of care): 25%

Excerpt of the above (block 3):
Tyrosine-protein kinase ABL1, non-phosphorylated (ABL1, Homo sapiens, UniProt P00519, F317I); binding: 86%
PRKACA (Homo sapiens, UniProt P17612); cell-free assay: 100%
STK17A (Homo sapiens, UniProt Q9UEE5); cell-free assay: 91%
STK32C (Homo sapiens, UniProt Q86UX6); cell-free assay: 94%
